Measured values collected from several papers.
Each line is one published result; not all experiments were run side by side. Values joined by “and” are separate records of one study, mostly repeats; a detail may differ. ± marks the error that the study gave.

SMILES | tested on | test | test system | conditions | scale | endpoint | result
C[C@H]1C[C@H]2CSC(N)=N[C@@]2(c2nc(NC(=O)c3ccc(OC(F)F)cn3)cs2)CO1 | – | item: Aβx-40 | healthy adults, plasma | 540 mg single dose, 48 h post-dose | relative to: placebo | percent change from baseline | -72.9%
c1ccc(-c2n[nH]cc2-c2ccnc3ccccc23)nc1 | – | kinase binding, competitor, MIB/MS competition, item: PKH3 | Candida albicans cell lysate | 100 nM | relative to: DMSO | log2 fold change | 1.33
CC(C)NCC(O)c1ccc(O)c(O)c1 (stereo not drawn) | – | – | ventricular cardiomyocytes, C57BL/6 mouse | dose not given, 0.628 s | – | sarcomere length | 1.72 µm
Cc1cc(-c2nnc(N)nc2-c2ccc(F)cc2)cc(Cl)n1 | – | NanoString, item: pDCs.R.IO signature | human mCRPC, peripheral blood | dose not given, 2 or 4 weeks | relative to: baseline, direction not given | GSVA score change | -0.194
CC(C)(C=C(C#N)C(=O)N1CCC[C@H]1Cn1nc(-c2ccc(Oc3ccccc3)cc2F)c2c(N)ncnc21)N1CCOCC1 | – | – | – | 10-fold dilution, LC-MS, with: β-mercaptoethanol | – | dissociation half-life | 2.53 ± 0.18 min
CC(C)c1nc(N(C)S(C)(=O)=O)nc(-c2ccc(F)cc2)c1/C=C/[C@@H](O)C[C@@H](O)CC(=O)O | – | – | human, HIV-infected, plasma | median after treatment | – | non-HDL cholesterol | 2.6 mmol/L
COc1ccc2c(c1)CC[C@@H]1[C@@H]2CC[C@]2(C)[C@@H](NCCCCCCN3C(=O)C=CC3=O)CC[C@@H]12 | – | immunostaining | humanized mouse, SAH model, middle cerebral artery | dose not given | – | p-PKC level | 6.94 MFI and 7.23 MFI and 9.01 MFI
C[C@H]1O[C@@H](O[C@H]2CC[C@@]3(C)[C@@H](CC[C@]4(C)[C@@H]3C=C[C@]35OC[C@@]6(CCC(C)(C)C[C@H]63)[C@@H](O)C[C@]54C)[C@]2(C)CO)[C@H](O)[C@@H](O[C@@H]2O[C@H](CO)[C@@H](O)[C@H](O)[C@H]2O)[C@H]1O | – | – | chronic-plus-binge ethanol mice | oral, 5 mg/kg/day for 7 d, 168 h | – | body weight change | 0.1 g and -0.3 g and -2.2 g and 1.7 g and -1.5 g
CCN(Cc1nc2c(N)nc3cc(-c4cc[nH]n4)ccc3c2[nH]1)C(C)=O | – | immunohistochemistry, item: NK cells | patients with advanced solid tumours, non-injected tumour lesions | dose not given, monotherapy | – | patients with increased cells | 56%
CC(CCc1ccc(O)cc1)NCCc1ccc(O)c(O)c1 (stereo not drawn) | – | – | anaesthetised instrumented rat | iv infusion, 1 µg/kg/min, 15 min, unit not given | relative to: baseline | heart rate change | 31 ± 12.6
O=C(OC(C(F)(F)F)C(F)(F)F)N1CCN(Cc2cccc(Oc3ccccc3)c2)CC1 | – | PET blocking study | rhesus monkey, brain occipital cortex | intravenous, 0.01 mg/kg, compound pretreatment, with: [18F]T-401 tracer | – | volume of distribution | 8.8 mL/cm3
Cc1n[nH]c2ccc(-c3cc(OC[C@@H](N)Cc4ccccc4)cnc3-c3ccoc3)cc12 | – | kinase binding, competitor, MIB/MS competition, item: RIO2 | Candida albicans cell lysate | 100 nM | relative to: DMSO | log2 fold change | -0.284
CC1(C)CCC2(CC1)N[C@@H](C(=O)N[C@@H]1CC[C@@H](C(N)=O)OC1)[C@H](c1ccnc(Cl)c1F)[C@]21C(=O)Nc2cc(Cl)ccc21 | – | – | human, solid tumours | 60 mg/day, RECIST | relative to: patients | progressive disease | 33.3%
N[C@@H](CC(=O)N1CCn2c(nnc2C(F)(F)F)C1)Cc1cc(F)c(F)cc1F | – | – | type 2 diabetes patients on metformin | oral, 100 mg once daily, 28 weeks | – | waist circumference | 104 cm
CC(=O)Oc1cc2c(s1)CCN(C(C(=O)C1CC1)c1ccccc1F)C2 (stereo not drawn) | – | platelet aggregation, light transmittance aggregometry | human, platelet-rich plasma | dose not given, 30 min, IPA above 90 %, with: TRAP 5 µM | relative to: patients | patients with IPA above threshold | 0%
NC(=O)c1cnc2[nH]ccc2c1N[C@@H]1[C@@H]2CC3C[C@H]1C[C@@](O)(C3)C2 | – | flow cytometry | Japanese healthy men, blood | oral, 30 mg twice daily, 72 h after day 7 dose | relative to: baseline | CD8+ memory T-cell change | 0.57%
CO[C@H]1CC[C@H](N2C(=O)CNc3ncc(-c4ccc(C(C)(C)O)nc4)nc32)CC1 | – | flow cytometry | stimulated monocytes, human, blood | 60 mg single dose, 24 h, mean | relative to: baseline | pAKT change from baseline | 30.2%
Cc1cnc(N2CC3(CCOCC3)C2)c(C(=O)Nc2ccc(C(=O)N3CCc4cc(C(=O)Nc5c(C)cccc5F)sc4-c4ccccc43)cc2)c1 | – | item: Fibrinogen | human RSV infection, plasma | dose not given, AUC, ITT-IS population | relative to: placebo | inhibition | 59%

SMILES | tested on | test | test system | conditions | scale | endpoint | result
COc1ccc(F)cc1C(=O)NCc1ccc(-c2nn([C@@H](C)C(F)(F)F)c(N)c2C(N)=O)cc1 | – | – | mouse OCI-Ly10 xenograft | 10 mg/kg twice daily, 840 h, 35 days after withdrawal | – | tumour growth inhibition | 83%
C[C@]12CC[C@@H]3c4ccc(O)cc4C[C@@H](CCCCCCCCC[S+]([O-])CCCC(F)(F)C(F)(F)F)[C@H]3[C@@H]1CC[C@@H]2O (stereo partly drawn) | – | – | female nude mouse LCC2 xenograft | 2.0 mg/kg, day 1, tamoxifen-resistant | – | tumour volume | 23.7 mm3 and 15.4 mm3 and 17.7 mm3 and 25.3 mm3 and 15.6 mm3 and 38.8 mm3 and 20.9 mm3
CC(C)C[C@H](NC(=O)[C@@H]1CCCN1C(=O)[C@H](Cc1ccccc1)NC(=O)CNC(=O)[C@@H]1CCCN1C(=O)[C@H](C)NC(=O)[C@H](CCCCNC(=O)CCOCCOCCNC(=O)CCOCCOCCNC(=O)CC[C@H](NC(=O)CCCCCCCCCCCCCCCCCCC(=O)O)C(=O)O)NC(=O)CNC(=O)[C@H](Cc1ccccc1)NC(=O)[C@@H](N)[C@@H](C)O)C(=O)NCC(=O)N[C@@H](CO)C(N)=O | – | – | mouse, CCl4 liver fibrosis | ip, 250 µg/kg daily, 4 weeks | – | liver to body weight ratio | 0.873 and 0.774 and 0.635
CN(C)C(=O)Oc1cccc([N+](C)(C)C)c1 | – | – | rat cisatracurium-induced neuromuscular block | 0.0125 mg/kg | – | twitch response | 56.7% and 34.2% and 11.2% and 23.5% and 23%
Nc1cc(F)ccc1NC(=O)/C=C/c1cnn(C/C=C/c2ccccc2)c1 | HBL-1 | – | – | 1 µM, 120 h | – | viability | 103%
N#Cc1ccc2c(-c3ccncc3)c(-c3ccc(F)cc3)nn2c1 | – | kinase binding, competitor, MIB/MS competition, item: PBS2 | Candida albicans cell lysate | 100 nM | relative to: DMSO | log2 fold change | 0.136
O=C(COc1ccc(Cl)cc1)NC12CC(c3nnc([C@H]4C[C@@H](OC(F)(F)F)C4)o3)(C1)C2 | – | item: CHAC1 | PBMC ex vivo stimulated, human ALS patients | 100 mg, D7 predose | relative to: baseline | mRNA level change | -67.5%
O=C1O[C@H]([C@@H](O)CO)C(O)=C1O | – | superoxide scavenging | – | 80 µM | – | inhibition | 41.7%
COc1cc(/C=C/C(=O)CC(=O)/C=C/c2ccc(O)c(OC)c2)ccc1O | – | – | rat, high-fat diet hyperlipaemia | oral, 200 mg/kg daily, 4 weeks | – | final body weight | 469 ± 39.3 g
CCO[C@H]1CCN(Cc2c(OC)cc(C)c3[nH]ccc23)[C@H](c2ccc(C(=O)O)cc2)C1 | – | – | PNH patients, blood | oral, 50 mg then 200 mg, week 2, mean percent change | relative to: baseline | C3d-positive type III RBCs | -73.2%
CC(C)[C@H](C(=O)Nc1ccc(C(=O)NO)cc1)c1ccccc1 | – | volumetric MRI | human, right vagal schwannoma | dose not given, day 359 | – | tumour volume | 7.8 cm3
C[C@H](Oc1ccc(Br)cc1-c1ccon1)C(=O)O | – | first response latency | human, tibialis anterior muscle | 800 mg, 15 Hz, single ascending dose | – | difference from placebo | -0.281%
CC(C)c1c(C(=O)Nc2ccccc2)c(-c2ccccc2)c(-c2ccc(F)cc2)n1CC[C@@H](O)C[C@@H](O)CC(=O)O | – | – | cynomolgus monkey, female, serum | 40 mg/kg or 25 mg/kg, day 176, 4224 h | – | total cholesterol | 157 mg/dL
Cc1noc(C)c1-c1cc(C(O)(c2ccccn2)c2ccccn2)c2nc(C3CC3)[nH]c2c1 | – | item: HEXIM1 expression | human, peripheral blood | 1.4 mg, day 8, 1599 study | – | maximum induction | 32.3%
COc1cc2c(NC3CCN(C)CC3)nc(N3CCCN(C)CC3)nc2cc1OCCCN(C)C | HBL-1 | – | – | 0.5 µM, 120 h | – | viability | 102%
C[C@H](NC(=O)c1c(C(F)F)nn(C)c1Oc1cccc(C(F)(F)F)c1)c1ccc(C(=O)O)cc1 | – | irRECIST best overall response | patients with advanced tumours | dose not given, all dose groups combined | – | patients with stable disease | 23.3%
CCN1CCN(Cc2ccc(Nc3ncc(F)c(-c4cc(F)c5nc6n(c5c4)[C@H](C)CCC6)n3)nc2)CC1 | – | – | human advanced solid tumours | 200 mg, phase Ia monotherapy RECIST 1.1 | – | partial response | 0%
O=C1Nc2cc3[nH]nc(-c4ccncc4)c3cc2CN1Cc1ccccc1 | – | RECIST v1.1 | human, relapsed or refractory advanced solid tumours | intravenous, 7.2 mg/kg, pooled schedules | – | progressive disease, best response | 40%

A few entries again:
SMILES | tested on | test | test system | conditions | scale | endpoint | result
C[C@H]1C[C@H]2CSC(N)=N[C@@]2(c2nc(NC(=O)c3ccc(OC(F)F)cn3)cs2)CO1 | – | item: Aβx-40 | healthy adults, plasma | 540 mg single dose, 48 h post-dose | relative to: placebo | percent change from baseline | -72.9%
CC(C)NCC(O)c1ccc(O)c(O)c1 (stereo not drawn) | – | – | ventricular cardiomyocytes, C57BL/6 mouse | dose not given, 0.628 s | – | sarcomere length | 1.72 µm
C[C@]12CC[C@@H]3c4ccc(O)cc4C[C@@H](CCCCCCCCC[S+]([O-])CCCC(F)(F)C(F)(F)F)[C@H]3[C@@H]1CC[C@@H]2O (stereo partly drawn) | – | – | female nude mouse LCC2 xenograft | 2.0 mg/kg, day 1, tamoxifen-resistant | – | tumour volume | 23.7 mm3 and 15.4 mm3 and 17.7 mm3 and 25.3 mm3 and 15.6 mm3 and 38.8 mm3 and 20.9 mm3
